{"data": "Assay results of several laboratories", "organism": "Streptococcus pneumoniae", "note": "Compare with care: the assays were run in different laboratories."}
{"Structure (SMILES)": "CC1(C)S[C@@H]2[C@H](NC(=O)[C@H](NC(=O)C3=C(O)C(c4ccccc4F)NC3=O)c3ccccc3)C(=O)N2[C@H]1C(=O)O (stereo partly drawn)", "assay": "microbial growth, broth dilution", "system": "R6", "MIC": "< 0.2 µg/mL"}
{"Structure (SMILES)": "CN[C@@H]1[C@H](O)[C@H](NC)[C@H]2O[C@]3(O)[C@H](O[C@@H]2[C@H]1O)O[C@H](C)C[C@@]3(O)CNCc1ccc(F)cc1", "system": "Daw27 drug resistant", "MIC": "6 µg/mL"}
{"Structure (SMILES)": "CNc1nc(SC)nc2ccccc12", "assay": "microbial growth, broth dilution", "system": "1629", "MIC": "> 64 µM"}
{"Structure (SMILES)": "CC(/C=C/C(O)=C1/C(=O)CNC1=O)=C\\[C@@H](C)[C@H]1O[C@@]2(C)O[C@H](C(=O)[C@@H]3O[C@@]32CO)[C@@H]1C", "system": "ATCC 49619", "MIC": "3.13 µM"}
{"Structure (SMILES)": "CN[C@@H]1[C@H](O)[C@H](NC)[C@H]2O[C@]3(O)[C@H](O[C@@H]2[C@H]1O)O[C@H](C)C[C@]3(O)CNCc1ccc(OC(F)(F)F)cc1", "system": "R6", "MIC": "> 200 µg/mL"}
{"Structure (SMILES)": "Cc1cccc(-c2nc(Nc3ccncn3)c3c(C)csc3n2)n1", "assay": "microbial growth, broth dilution", "system": "1629", "MIC": "16 µM"}
{"Structure (SMILES)": "CN[C@@H]1[C@H](O)[C@H](NC)[C@H]2O[C@]3(O)[C@H](O[C@@H]2[C@H]1O)O[C@H](C)C[C@@]3(O)CNCc1ccccc1", "system": "ATCC 700904 drug resistant", "MIC": "13 µg/mL"}
{"Structure (SMILES)": "COc1ccc2nc(C)cc(OCC(=O)Nc3cc(C)cc(C)c3)c2c1", "assay": "microbial growth, broth dilution", "system": "1629", "MIC": "64 µM"}
{"Structure (SMILES)": "CC[C@H](C)[C@H](N)C1=N[C@H](C(=O)N[C@@H](CC(C)C)C(=O)N[C@H](CCC(=O)O)C(=O)N[C@H](C(=O)N[C@H]2CCCCNC(=O)[C@H](CC(N)=O)NC(=O)[C@@H](CC(=O)O)NC(=O)[C@H](Cc3c[nH]cn3)NC(=O)[C@@H](CC(C)C)NC(=O)[C@H]([C@@H](C)CC)NC(=O)[C@@H](CCCN)NC2=O)[C@@H](C)CC)CS1", "system": "153, TSB with lysed horse blood", "conditions": "24 h, 37 °C, added: ZnSO4", "MIC": "> 64 µg/mL"}
{"Structure (SMILES)": "CCc1ccc([C@@H]2C[C@H](C(F)(F)F)n3ncc(C(=O)NCc4ccc(OC)cc4)c3N2)cc1", "assay": "microbial growth, broth dilution", "system": "1629", "MIC": "64 µM"}
{"Structure (SMILES)": "CC[C@H](C)[C@H](N)C1=N[C@H](C(=O)N[C@@H](CC(C)C)C(=O)N[C@H](CCC(=O)O)C(=O)N[C@H](C(=O)N[C@H]2CCCCNC(=O)[C@H](CC(N)=O)NC(=O)[C@@H](CC(=O)O)NC(=O)[C@H](Cc3c[nH]cn3)NC(=O)[C@@H](Cc3ccccc3)NC(=O)[C@H](Cc3ccccc3)NC(=O)[C@@H](CCCN)NC2=O)[C@@H](C)CC)CS1", "system": "153, TSB with lysed horse blood", "conditions": "24 h, 37 °C, added: ZnSO4", "MIC": "16 µg/mL"}
{"Structure (SMILES)": "CC(C)[C@H](NC(=O)[C@H](CCCNC(=N)N)NC(=O)[C@H](CCCNC(=N)N)NC(=O)[C@@H](NC(=O)[C@H](C)NC(=O)[C@H](CC(N)=O)NC(=O)[C@H](CCCNC(=N)N)NC(=O)[C@@H](NC(=O)[C@H](CCCNC(=N)N)NC(=O)[C@H](CCCNC(=N)N)NC(=O)[C@@H](NC(=O)[C@@H](NC(=O)[C@H](CCCNC(=N)N)NC(=O)[C@H](CCCNC(=N)N)NC(=O)[C@H](Cc1c[nH]c2ccccc12)NC(=O)[C@H](Cc1c[nH]c2ccccc12)NC(=O)CN)[C@@H](C)O)C(C)C)C(C)C)C(C)C)C(=O)O", "system": "clinical strain", "conditions": "18 h, 37 °C", "MIC": "128 µg/mL"}
{"Structure (SMILES)": "Cc1ccc2nc(C)c(C(=O)NCc3cccs3)n2c1", "assay": "microbial growth, broth dilution", "system": "1629", "MIC": "> 64 µM"}
{"Structure (SMILES)": "CC[C@@H](C)[C@H]1NC(=O)[C@H]([C@@H](C)CC)NC(=O)[C@@H](CCCN)NC(=O)[C@@H](NC(=O)[C@@H](NC(=O)[C@@H](CCC(=O)O)NC(=O)[C@H](CC(C)C)NC(=O)[C@@H]2CSC([C@@H](N)[C@@H](C)CC)=N2)[C@@H](C)CC)CCCCNC(=O)[C@H](CC(N)=O)NC(=O)[C@@H](CC(=O)O)NC(=O)[C@H](Cc2c[nH]cn2)NC1=O", "system": "153, TSB with lysed horse blood", "conditions": "24 h, 37 °C, added: ZnSO4", "MIC": "64 µg/mL"}
{"Structure (SMILES)": "c1ccc(CCNC2CCCc3c2[nH]c2ccc(C4CCCCC4)cc32)cc1 (stereo not drawn)", "assay": "broth microdilution", "system": "T4, THY medium", "MIC": "0.3 µg/mL"}
{"note": "Repeated from above:"}
{"Structure (SMILES)": "COc1ccc2nc(C)cc(OCC(=O)Nc3cc(C)cc(C)c3)c2c1", "assay": "microbial growth, broth dilution", "system": "1629", "MIC": "64 µM"}
{"Structure (SMILES)": "CC[C@H](C)[C@H](N)C1=N[C@H](C(=O)N[C@@H](CC(C)C)C(=O)N[C@H](CCC(=O)O)C(=O)N[C@H](C(=O)N[C@H]2CCCCNC(=O)[C@H](CC(N)=O)NC(=O)[C@@H](CC(=O)O)NC(=O)[C@H](Cc3c[nH]cn3)NC(=O)[C@@H](CC(C)C)NC(=O)[C@H]([C@@H](C)CC)NC(=O)[C@@H](CCCN)NC2=O)[C@@H](C)CC)CS1", "system": "153, TSB with lysed horse blood", "conditions": "24 h, 37 °C, added: ZnSO4", "MIC": "> 64 µg/mL"}
